Published values of several laboratories.
Each numbered part is a random draw from the data of one study; scales do not carry over between parts. “And” joins repeats or separate records; there may be more than shown.
Sequence of UniProt Q9UKT9 (whole entry, looked up): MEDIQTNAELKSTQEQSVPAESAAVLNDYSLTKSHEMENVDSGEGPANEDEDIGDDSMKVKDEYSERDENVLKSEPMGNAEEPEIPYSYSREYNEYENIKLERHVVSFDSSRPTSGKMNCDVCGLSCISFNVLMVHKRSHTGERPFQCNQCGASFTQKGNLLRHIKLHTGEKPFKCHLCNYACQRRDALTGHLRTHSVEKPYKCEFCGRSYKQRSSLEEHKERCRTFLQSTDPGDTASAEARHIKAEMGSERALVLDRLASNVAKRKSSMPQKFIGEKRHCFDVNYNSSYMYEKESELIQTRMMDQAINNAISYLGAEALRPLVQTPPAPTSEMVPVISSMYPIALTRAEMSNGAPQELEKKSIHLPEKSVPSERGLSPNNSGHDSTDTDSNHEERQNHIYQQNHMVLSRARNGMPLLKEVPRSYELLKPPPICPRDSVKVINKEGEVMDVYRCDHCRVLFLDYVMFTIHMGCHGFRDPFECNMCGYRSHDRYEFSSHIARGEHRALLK

Study 1 — method: modified Racine scale; host: C57BL/6J mice, male; route: intracerebroventricular; dose: 100 nmol; direction: direction not given
SMILES: N=C(N)NCCCCCCN1CCC23c4c5ccc(O)c4OC2c2nc4ccccc4cc2CC3(O)C1C5 (stereo not drawn)
The seizure score was 0 (65 min).
For 75 min: seizure score read 0.
30 min — seizure score: 0.
It gave 0 for seizure score (15 min).
For 5 min: seizure score read 0.
20 min — seizure score: 0.

Study 2 — cell line: P493B lymphoma cells
Structure (SMILES): CC(C)OC(=O)[C@H](CCC(=O)C=[N+]=[N-])NC(=O)[C@H](Cc1c[nH]c2ccccc12)NC(=O)C12CCN(CC1)CC2
For 10 µM: viability read 96%.
The viability was 104% (300 nM).
For 1 µM: viability read 100%.
For 3 µM: viability read 116%.

Study 3
Compound: C#CCN1C(=O)C(O)(C(=O)O)Oc2cc(F)ccc21 (stereo not drawn)
It gave 99.8% and 100% for inhibition (Setaria viridis; fresh weight; 150 g ai/ha, pre-emergence treatment).
For Alopecurus aequalis; fresh weight; 150 g ai/ha, pre-emergence treatment: inhibition read 54.5% and 46% and 56.1%.
It gave 1.9% and 1% and 2.5% for inhibition (Oryza sativa; fresh weight; soil surface spray, 150 g ai/ha, 21 days, pre-emergence crop safety).
Arabidopsis thaliana; root length; Col-0; 50.0 µg/mL, 7 days, seed germination, dark — inhibition: 87%.
Arabidopsis thaliana; root length; Col-0; 12.5 µg/mL, 7 days, seed germination, dark — inhibition: 50.8%.
The inhibition was 12.5% (Arabidopsis thaliana; root length; Col-0; 3.13 µg/mL, 7 days, seed germination, dark).
It gave 10.1% for inhibition (Arabidopsis thaliana; hypocotyl length; Col-0; 3.125 µg/mL, 7 days, seed germination, dark).
Eclipta prostrata; fresh weight; 150 g ai/ha, post-emergence treatment — inhibition: 78.4% and 76.9% and 79.9%.
Arabidopsis thaliana; hypocotyl length; Col-0; 6.25 µg/mL, 7 days, seed germination, dark — inhibition: 19.4%.

Study 4 — action: degrader
SMILES: Cn1cc(-c2cccc(CN3CCC4(CC3)COc3c4ccc4c3CN([C@H]3CCC(=O)NC3=O)C4=O)c2)cn1
IKZF4: Zinc finger protein Eos (IKZF4, Homo sapiens, UniProt Q9H2S9)
Sequence of UniProt Q9H2S9 (whole entry, looked up): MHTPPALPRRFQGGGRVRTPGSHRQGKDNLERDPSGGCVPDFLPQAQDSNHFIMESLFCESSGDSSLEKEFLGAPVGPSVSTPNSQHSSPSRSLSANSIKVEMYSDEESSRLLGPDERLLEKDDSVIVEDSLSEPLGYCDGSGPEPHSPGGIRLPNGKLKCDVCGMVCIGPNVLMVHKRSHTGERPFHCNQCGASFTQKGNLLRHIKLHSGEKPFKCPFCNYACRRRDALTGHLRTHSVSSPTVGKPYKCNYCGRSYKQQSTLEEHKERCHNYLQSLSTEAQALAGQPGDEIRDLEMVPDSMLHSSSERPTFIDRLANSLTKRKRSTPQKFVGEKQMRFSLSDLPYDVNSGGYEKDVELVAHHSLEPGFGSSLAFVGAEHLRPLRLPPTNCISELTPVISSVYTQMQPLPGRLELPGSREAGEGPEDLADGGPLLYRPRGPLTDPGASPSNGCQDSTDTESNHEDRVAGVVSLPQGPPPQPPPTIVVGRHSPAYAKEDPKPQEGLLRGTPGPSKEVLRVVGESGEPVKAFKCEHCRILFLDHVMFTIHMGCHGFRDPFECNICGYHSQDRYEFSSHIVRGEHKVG
CRBN/Zinc finger protein Helios: CRBN/Zinc finger protein Helios (Homo sapiens, UniProt Q96SW2+Q9UKS7)
Sequence of UniProt Q96SW2 (whole entry, looked up): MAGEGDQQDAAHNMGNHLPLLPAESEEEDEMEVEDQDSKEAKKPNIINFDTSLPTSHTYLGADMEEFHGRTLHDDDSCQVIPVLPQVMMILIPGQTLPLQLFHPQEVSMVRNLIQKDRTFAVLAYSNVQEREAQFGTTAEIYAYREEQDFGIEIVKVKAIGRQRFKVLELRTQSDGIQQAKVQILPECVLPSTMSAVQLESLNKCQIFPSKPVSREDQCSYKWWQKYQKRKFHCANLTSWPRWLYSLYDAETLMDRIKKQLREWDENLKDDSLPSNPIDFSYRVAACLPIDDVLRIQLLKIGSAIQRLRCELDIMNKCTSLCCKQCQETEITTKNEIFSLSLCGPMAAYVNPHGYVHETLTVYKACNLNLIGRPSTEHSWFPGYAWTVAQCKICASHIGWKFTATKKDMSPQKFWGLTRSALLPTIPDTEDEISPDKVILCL
Sequence of UniProt Q9UKS7 (whole entry, looked up): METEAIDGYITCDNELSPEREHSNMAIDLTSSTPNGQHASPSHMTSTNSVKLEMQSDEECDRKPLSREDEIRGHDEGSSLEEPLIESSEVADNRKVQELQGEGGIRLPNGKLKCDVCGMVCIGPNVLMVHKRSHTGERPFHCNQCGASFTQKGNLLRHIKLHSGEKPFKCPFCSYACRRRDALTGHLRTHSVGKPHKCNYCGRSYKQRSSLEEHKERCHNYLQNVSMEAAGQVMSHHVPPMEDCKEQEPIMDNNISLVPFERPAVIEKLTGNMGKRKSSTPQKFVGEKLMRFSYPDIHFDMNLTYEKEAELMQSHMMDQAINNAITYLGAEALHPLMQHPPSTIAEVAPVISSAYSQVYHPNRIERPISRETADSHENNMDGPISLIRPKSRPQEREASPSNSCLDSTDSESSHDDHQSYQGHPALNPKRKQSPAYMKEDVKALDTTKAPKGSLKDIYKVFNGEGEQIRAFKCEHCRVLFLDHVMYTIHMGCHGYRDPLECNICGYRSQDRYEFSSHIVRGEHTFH
DNA-binding protein Ikaros: DNA-binding protein Ikaros (Homo sapiens, UniProt Q13422)
Sequence of UniProt Q13422 (whole entry, looked up): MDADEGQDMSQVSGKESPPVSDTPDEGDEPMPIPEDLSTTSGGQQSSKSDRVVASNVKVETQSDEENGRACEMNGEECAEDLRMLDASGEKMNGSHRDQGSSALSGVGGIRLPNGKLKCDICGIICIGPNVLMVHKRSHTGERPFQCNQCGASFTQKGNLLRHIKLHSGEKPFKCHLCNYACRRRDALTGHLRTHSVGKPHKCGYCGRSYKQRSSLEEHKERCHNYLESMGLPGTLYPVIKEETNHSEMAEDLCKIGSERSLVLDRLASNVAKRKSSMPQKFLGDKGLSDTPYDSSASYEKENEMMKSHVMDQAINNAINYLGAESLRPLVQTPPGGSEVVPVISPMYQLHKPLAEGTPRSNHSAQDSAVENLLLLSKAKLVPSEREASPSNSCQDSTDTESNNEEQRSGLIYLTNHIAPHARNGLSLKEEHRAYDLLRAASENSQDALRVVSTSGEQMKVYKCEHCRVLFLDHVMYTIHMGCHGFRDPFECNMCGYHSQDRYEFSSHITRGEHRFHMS
SALL4: Sal-like protein 4 (SALL4, Homo sapiens, UniProt Q9UJQ4)
Sequence of UniProt Q9UJQ4 (whole entry, looked up): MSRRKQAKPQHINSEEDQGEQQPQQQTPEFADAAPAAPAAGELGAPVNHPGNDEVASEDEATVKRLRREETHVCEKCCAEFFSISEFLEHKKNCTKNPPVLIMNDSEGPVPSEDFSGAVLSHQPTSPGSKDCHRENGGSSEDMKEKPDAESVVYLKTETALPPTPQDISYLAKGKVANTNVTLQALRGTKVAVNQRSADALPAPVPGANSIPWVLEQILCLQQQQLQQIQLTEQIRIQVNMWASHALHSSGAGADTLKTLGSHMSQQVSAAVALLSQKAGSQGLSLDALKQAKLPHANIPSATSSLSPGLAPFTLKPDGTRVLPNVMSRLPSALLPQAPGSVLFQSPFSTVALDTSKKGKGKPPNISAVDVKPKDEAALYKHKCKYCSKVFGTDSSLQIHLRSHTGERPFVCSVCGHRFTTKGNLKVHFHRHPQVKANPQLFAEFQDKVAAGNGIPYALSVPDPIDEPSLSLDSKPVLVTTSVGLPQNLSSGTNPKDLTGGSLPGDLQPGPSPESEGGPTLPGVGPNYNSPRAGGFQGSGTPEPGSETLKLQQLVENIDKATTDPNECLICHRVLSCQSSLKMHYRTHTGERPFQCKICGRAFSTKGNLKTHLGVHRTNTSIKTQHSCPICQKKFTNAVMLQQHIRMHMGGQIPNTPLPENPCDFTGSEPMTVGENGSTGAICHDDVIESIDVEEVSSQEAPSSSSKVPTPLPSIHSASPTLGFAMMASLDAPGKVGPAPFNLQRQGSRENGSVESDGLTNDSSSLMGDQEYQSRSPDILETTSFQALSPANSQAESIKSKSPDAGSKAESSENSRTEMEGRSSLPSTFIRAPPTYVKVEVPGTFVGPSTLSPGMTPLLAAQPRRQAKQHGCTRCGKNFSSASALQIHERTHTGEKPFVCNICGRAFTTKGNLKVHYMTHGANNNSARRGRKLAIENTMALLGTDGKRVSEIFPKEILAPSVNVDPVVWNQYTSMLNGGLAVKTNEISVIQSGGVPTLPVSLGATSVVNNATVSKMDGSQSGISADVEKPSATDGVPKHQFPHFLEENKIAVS
CSNK1A1: Casein kinase I isoform alpha (CSNK1A1, Homo sapiens, UniProt P48729)
Sequence of UniProt P48729 (whole entry, looked up): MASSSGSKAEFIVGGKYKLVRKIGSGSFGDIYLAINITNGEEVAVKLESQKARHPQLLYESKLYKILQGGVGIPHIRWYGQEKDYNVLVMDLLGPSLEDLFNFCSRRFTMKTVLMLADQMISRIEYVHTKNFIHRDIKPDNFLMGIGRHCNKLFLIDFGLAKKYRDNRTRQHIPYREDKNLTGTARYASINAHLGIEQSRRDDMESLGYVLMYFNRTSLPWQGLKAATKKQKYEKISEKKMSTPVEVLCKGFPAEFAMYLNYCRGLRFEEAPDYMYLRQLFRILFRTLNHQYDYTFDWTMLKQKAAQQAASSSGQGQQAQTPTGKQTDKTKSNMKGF
GSPT1: Eukaryotic peptide chain release factor GTP-binding subunit ERF3A (GSPT1, Homo sapiens, UniProt P15170)
Sequence of UniProt P15170 (whole entry, looked up): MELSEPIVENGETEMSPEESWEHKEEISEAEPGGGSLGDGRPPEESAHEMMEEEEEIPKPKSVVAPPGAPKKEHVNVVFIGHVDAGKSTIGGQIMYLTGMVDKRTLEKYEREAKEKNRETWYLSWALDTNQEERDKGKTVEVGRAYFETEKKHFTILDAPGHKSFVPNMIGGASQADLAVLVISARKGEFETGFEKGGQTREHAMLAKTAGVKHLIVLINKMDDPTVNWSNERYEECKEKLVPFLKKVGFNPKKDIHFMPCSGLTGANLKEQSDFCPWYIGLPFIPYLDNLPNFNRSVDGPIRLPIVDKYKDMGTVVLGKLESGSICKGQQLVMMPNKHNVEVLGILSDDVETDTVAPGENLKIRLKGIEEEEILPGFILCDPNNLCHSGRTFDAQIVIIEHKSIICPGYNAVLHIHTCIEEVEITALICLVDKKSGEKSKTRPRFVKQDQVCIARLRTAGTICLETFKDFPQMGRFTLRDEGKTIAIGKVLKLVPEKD
For IKZF4; HiBiT; HEK293; 4.115 nM, 6 h: remaining protein read 97.1% and 102%.
The remaining protein was 97% and 106% (CRBN/Zinc finger protein Helios; flow cytometry; primary human regulatory T cells; 0.4572 nM, 3 h).
It gave 94.1% and 92.6% for remaining protein (DNA-binding protein Ikaros; HiBiT; HEK293; 13.72 nM).
For SALL4; HiBiT; HEK293; 123.5 nM: remaining protein read 69.3% and 85.2%.
For CSNK1A1; HiBiT; HEK293; 370.37 nM: remaining protein read 94% and 101%.
It gave 101% and 98.2% for remaining protein (GSPT1; HiBiT; HEK293; 370.37 nM).
For IKZF4; HiBiT; HEK293; 0.4572 nM, 3 h: remaining protein read 98.5% and 114%.
The remaining protein was 114% and 102% (IKZF4; HiBiT; HEK293; 1.372 nM, 3 h).
It gave 90.6% and 88.4% for remaining protein (DNA-binding protein Ikaros; HiBiT; HEK293; 10000 nM).
It gave 106% and 99.8% for remaining protein (DNA-binding protein Ikaros; HiBiT; HEK293; 0.1694 nM).
The remaining protein was 96.6% and 99.7% (GSPT1; HiBiT; HEK293; 41.15 nM).
For Zinc finger protein Aiolos (Homo sapiens, UniProt Q9UKT9); HiBiT; HEK293; 3333.33 nM: remaining protein read 87.6% and 88%.
IKZF4; HiBiT; HEK293; 0.4572 nM, 6 h — remaining protein: 105% and 100%.
For SALL4; HiBiT; HEK293; 1111.11 nM: remaining protein read 70.9% and 73.3%.
For IKZF4; HiBiT; HEK293; 1000 nM, 6 h: remaining protein read 107% and 102%.
It gave 100% and 103% for remaining protein (GSPT1; HiBiT; HEK293; 3333.33 nM).
GSPT1; HiBiT; HEK293; 0.1694 nM — remaining protein: 95.9% and 87.2%.
The remaining protein was 95.8% and 95% (CRBN/Zinc finger protein Helios; flow cytometry; primary human regulatory T cells; 1.372 nM, 6 h).
It gave 95% and 98.6% for remaining protein (CSNK1A1; HiBiT; HEK293; 3333.33 nM).
DNA-binding protein Ikaros; HiBiT; HEK293; 4.572 nM — remaining protein: 98.1% and 91.7%.

Study 5 — effect on: binding; method: HTRF
SMILES: Cc1ccc(O)c(C)c1-c1cnc2[nH]c(-c3cnc(N4CCC(CN5CCN(c6ccc7c8c(cccc68)C(=O)N7C6CCC(=O)NC6=O)CC5)CC4)nc3)cc2c1C#N (racemic)
Target: Membrane-associated tyrosine- and threonine-specific cdc2-inhibitory kinase (PKMYT1, Homo sapiens, UniProt Q99640)
Construct (Q99640 1-499): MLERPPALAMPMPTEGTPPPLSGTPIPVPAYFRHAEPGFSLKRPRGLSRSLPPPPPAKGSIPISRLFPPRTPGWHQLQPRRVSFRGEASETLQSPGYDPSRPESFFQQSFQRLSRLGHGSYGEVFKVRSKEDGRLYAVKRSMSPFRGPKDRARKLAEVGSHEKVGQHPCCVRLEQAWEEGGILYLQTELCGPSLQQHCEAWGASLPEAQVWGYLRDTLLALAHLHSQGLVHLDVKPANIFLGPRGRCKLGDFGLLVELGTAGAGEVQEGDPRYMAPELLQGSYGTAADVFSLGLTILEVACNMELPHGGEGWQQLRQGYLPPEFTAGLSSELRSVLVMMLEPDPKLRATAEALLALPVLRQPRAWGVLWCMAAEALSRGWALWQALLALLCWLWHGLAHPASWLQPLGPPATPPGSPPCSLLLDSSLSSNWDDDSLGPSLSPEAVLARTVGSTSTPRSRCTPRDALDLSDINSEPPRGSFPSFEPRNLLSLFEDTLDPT
For 4.12 nM: inhibition read 25% and 20.3%.
0.051 nM — inhibition: -4.36% and -7.8%.
333.33 nM — inhibition: 98.4% and 98.2%.

Repeated from above (study 3):
Arabidopsis thaliana; root length; Col-0; 50.0 µg/mL, 7 days, seed germination, dark — inhibition: 87%.
Arabidopsis thaliana; root length; Col-0; 12.5 µg/mL, 7 days, seed germination, dark — inhibition: 50.8%.
For Alopecurus aequalis; fresh weight; 150 g ai/ha, pre-emergence treatment: inhibition read 54.5% and 46% and 56.1%.
